Literature values that unrelated publications cite.
Numbers after ± are the reported error.
Genome polyprotein NS3 helicase domain: Genome polyprotein, NS3 helicase domain (Hepatitis C virus genotype 1b, UniProt Q9WMX2)
Gastrin-releasing peptide receptor: Gastrin-releasing peptide receptor (Rattus norvegicus, UniProt P52500)

The IC50 of COc1cc(/C=C/C(=O)CC(=O)/C=C/c2ccc(O)c(OC)c2)ccc1O is reported as 1 to 2 µM (Broad substrate specificity ATP-binding cassette transporter ABCG2 (ABCG2, Homo sapiens, UniProt Q9UNQ0); transport activity, inhibitor; cells overexpressing ABCG2).
Nc1nc2c(nc(Br)n2[C@@H]2O[C@@H]3COP(=O)(O)O[C@H]3[C@H]2O)c(=O)[nH]1: “Km or Ki” 30.1 µM (PDE4D; cyclic nucleotide hydrolysis, substrate or inhibitor, isothermal titration calorimetry).
The Vz/F of Cc1ccccc1-c1cc(N2CCN(C)CC2)ncc1N(C)C(=O)C(C)(C)c1cc(C(F)(F)F)cc(C(F)(F)F)c1 is reported as 1860 L (patients, plasma; oral, dose not given, netupitant-palonosetron combination, added: etoposide 35 to 100 mg/m^2 IV).
With COc1ccccc1N1CCN(CC(O)c2cn(S(=O)(=O)c3cccc4ccccc34)c3ccccc23)CC1 (stereo not drawn) the IC50 was 0.032 µM (5-HT6 receptor; antagonist).
Cc1ccc2nc(-c3ccc4nc(-c5ccc(NC(=O)c6ccc(Br)cc6)cc5)sc4c3)sc2c1S(=O)(=O)O has an IC50 of 3.8 ± 0.4 µM (Genome polyprotein NS3 helicase domain; RNA unwinding).
Nc1nc2c(ncn2[C@@H]2O[C@H](COP(=O)(O)OP(=O)(O)OP(=O)(O)O)[C@@H](O)[C@H]2O)c(=O)[nH]1 has an IC50 of 0.042 ± 0.012 µM (GLUD1 (Homo sapiens, UniProt P00367); enzyme activity, allosteric inhibitor; reductive amination direction).
For CCc1cc(CC)n2nc(-c3ccc(OCCF)cc3)c(CC(=O)N(CC)CC)c2n1, the IC50 was 0.0003 µM (Translocator protein (Tspo, Rattus norvegicus, UniProt P16257); binding, radioligand displacement; C6 glioma cell lysate; added: [3H]PK 11195).
NS(=O)(=O)c1ccc(-n2nc(C(F)(F)F)cc2-c2ccc(F)cc2F)cc1 has an IC50 of 134 µM (COX-1 (rat seminal vesicles); enzyme activity, inhibitor).
With Cc1ccc(NC(=O)/C=C/c2ccco2)cc1 the IC50 was 174 µM (Nicotinic acetylcholine receptor alpha9/alpha10 (Rattus norvegicus, UniProt P43144+Q9JLB5); inhibitor).
Cc1ccc(Sc2cccc3[nH]c4nc(N)nc(N)c4c23)cc1 gave an IC50 of 10.4 ± 1.2 µM (Epidermal growth factor receptor (EGFR, Homo sapiens, UniProt P00533); kinase activity, inhibitor).
For CNCCC(Oc1ccc(C(F)(F)F)cc1)c1ccccc1 (stereo not drawn), the IC50 was 2 ± 0.4 µM (Neuronal acetylcholine receptor; alpha3/beta4 (Homo sapiens, UniProt P30926+P32297); inhibitor).
For O=C(O)c1cc([C@H]2CCN[C@@H]2C(=O)O)ccc1Br, the IC50 was over 100 µM (AMPA receptor (rat); binding, [3H]AMPA displacement; rat synaptosomes).
Nc1nc(N)c2c(n1)[nH]c1cccc(Sc3ccccc3)c12 has an IC50 of 2.8 ± 0.42 µM (Platelet-derived growth factor receptor beta (PDGFRB, Homo sapiens, UniProt P09619); kinase activity, inhibitor).
The IC50 of O=C1CCOc2cc(OCc3ccc(Br)cc3)ccc21 is reported as 0.022 µM (Amine oxidase [flavin-containing] B (MAOB, Homo sapiens, UniProt P27338); enzyme activity, inhibitor).
The IC50 of NC(=NCc1ccccc1)NC(=O)c1nc(Cl)c(N)nc1N is reported as 0.83 µM (Degenerin mec-4 (mec-4, Caenorhabditis elegans, UniProt P24612, A713T); concentration not given).
O=C(O)c1cc2cc(Br)ccc2oc1=O gave an IC50 of 18.6 ± 1.4 µM (Glutamate NMDA receptor; Grin1/Grin2a (Grin1/Grin2a, Rattus norvegicus, UniProt P35439+Q00959)).
For C#Cc1nc2c(N)ncnc2n1[C@@H]1O[C@H](COP(=O)(O)OP(=O)(O)OC[C@H]2O[C@@H]([n+]3cc(N=[N+]=[N-])cc(C(=O)[O-])c3)[C@H](O)[C@@H]2O)[C@@H](O)[C@H]1OP(=O)(O)O, the IC50 was about 0.1 µM (NAADP receptor sea urchin; desensitization; sea urchin egg homogenate).
The IC50 of C[C@@H](O)CCCCn1c(=O)c2c(ncn2C)n(C)c1=O is reported as 0.6 µM (lysophosphatidic acid acyltransferase; inhibitor; P388; added: lipopolysaccharide).
O=C(O)C(O)(Cc1cccnc1)P(=O)(O)O (stereo not drawn) has an IC50 of about 600 µM (geranylgeranyltransferase II; enzyme activity, inhibitor).
CCNc1nc(Cl)nc(NC(C)C)n1 gave an IC50 of 20.7 µM (estrogen receptor, alligator; binding; adult female oviduct tissue).
With Cc1ccc(C2Nc3ccccc3-n3c(-c4ccccc4)c4c(=O)n(C)c(=O)n(C)c4c32)o1 (stereo not drawn) the IC50 was about 0.09 µM (Cystic fibrosis transmembrane conductance regulator (CFTR, Homo sapiens, UniProt P13569); chloride conductance, inhibitor).
CC(C)C[C@H](NC(=O)[C@@H](CC(=O)NO)Cc1ccccc1)C(=O)O has an IC50 of 0.03 to 0.06 µM (thimet oligopeptidase; inhibitor; range reported for several peptidases).
The IC50 of CSCC[C@H](NC(=O)[C@@H](Cc1c[nH]c2ccccc12)NC(=O)[C@@H](Cc1c[nH]c2ccccc12)NC(=O)[C@H](Cc1ccccc1)NC(=O)[C@@H](Cc1c[nH]c2ccccc12)NC(=O)[C@H](CCC(N)=O)NC(=O)[C@H](CCC(N)=O)NC(=O)[C@H]1CCCN1)C(N)=O is reported as over 10 µM (Gastrin-releasing peptide receptor).
The IC50 of O=C(O)CCNC(=S)NCCCC[C@H](NS(=O)(=O)c1cccc(F)c1)C(=O)N[C@@H](Cc1c[nH]c2ccccc12)C(=O)NC1CCC1 is reported as 0.11 µM (NAD-dependent protein deacylase sirtuin-5, mitochondrial (SIRT5, Homo sapiens, UniProt Q9NXA8); desuccinylase activity, inhibitor, fluor de Lys).
The IC50 of C/C(=N\Cc1ccccc1)c1c(O)c2ccccc2oc1=O is reported as 1 µM (Myosin-4 (MYH4, Oryctolagus cuniculus, UniProt Q28641); skeletal myosin activity, inhibitor).
The IC50 of CCN(CC)C(=S)SSC(=S)N(CC)CC is reported as about 1 µM (dopamine β-hydroxylase; inhibitor).
For O=P(O)(O)O[C@@H]1[C@H](O)[C@H](O)[C@@H](OP(=O)(O)O)[C@H](OP(=O)(O)O)[C@H]1O, the Kd was 0.0017 ± 0.0002 µM (IP3R1 N-terminal domain residues 1-604; binding, radioligand competition; pH 8.3, added: [3H]IP3).
For `MGWCTASVPPQCYG`, the IC50 was 18.7 µM (Chymotrypsin-like elastase family member 1 (CELA1, Sus scrofa, UniProt P00772); inhibitor; peptide).
For O=C(Nc1ccc2nc(SCc3ccc(Cl)cc3)sc2c1)c1ccccc1C(=O)N1CCOCC1, the IC50 was 0.55 µM (G-protein coupled receptor 35 (GPR35, Homo sapiens, UniProt Q9HC97); antagonist).
For Cc1ccc2nc(-c3ccc4nc(-c5ccc(NC(=O)c6ccc(C(C)(C)C)cc6)cc5)sc4c3)sc2c1S(=O)(=O)O, the IC50 was 8.8 ± 3 µM (Genome polyprotein NS3 helicase domain; RNA unwinding).
The CL/F of O=C1c2cccc3c2[C@H](CCC3)CN1[C@@H]1CN2CCC1CC2 is reported as 7 L/h (patients, plasma; oral, dose not given, netupitant-palonosetron combination, added: docetaxel 75 to 100 mg/m^2 IV).
For CC(ONC(=O)c1cc(C(F)(F)F)cc(C(F)(F)F)c1)C(=O)Nc1ccc(Cl)cc1 (stereo not drawn), the IC50 was under 1 µM (SRE.L luciferase reporter (Rho pathway); reporter gene, inhibitor).
O=C1OC2(c3cc(I)c(O)c(I)c3Oc3c2cc(I)c(O)c3I)c2c(Cl)c(Cl)c(Cl)c(Cl)c21 gave an IC50 of 0.3 µM (Protein translocase subunit SecA (secA, Pseudomonas aeruginosa, UniProt Q9LCT3); channel activity, inhibitor; Xenopus oocytes).
O=C(/C=C/c1ccc(O)cc1)CC(=O)/C=C/c1ccc(O)cc1 has an IC50 of 6 µM (matrix metalloproteinase-3; inhibitor; breast cancer cells).
CSCC[C@H](NC(=O)[C@H](CC(C)C)NC(=O)[C@@H](Cc1ccccc1)NC(=O)CNC(=O)[C@@H](NC(=O)[C@H](C)NC(=O)[C@H](Cc1c[nH]c2ccccc12)NC(=O)[C@H](CCC(N)=O)NC(=O)[C@H](CC(N)=O)NC(=O)CNC(=O)[C@H](Cc1ccc(O)cc1)NC(=O)[C@H](CCCNC(=N)N)NC(=O)[C@H](CCC(N)=O)NC(=O)[C@@H]1CCC(=O)N1)C(C)C)C(N)=O has an IC50 of over 10 µM (Gastrin-releasing peptide receptor; binding; literature species comparison).
Nc1scc2c(C(=O)O)nn(-c3ccc(Cl)cc3)c(=O)c12 gave an IC50 of 5 ± 2.15 µM (Microtubule-associated protein tau, K18 fragment (244-369) (MAPT, Homo sapiens, UniProt P10636, P618L); tau K18 fibrillization (ThT), inhibitor; tau 20 µM, added: heparin).
With Cc1ccc2nc(-c3ccc4nc(-c5ccc(NC(=O)c6cccc(C(F)(F)F)c6F)cc5)sc4c3)sc2c1S(=O)(=O)O the IC50 was 11.9 ± 4 µM (Genome polyprotein NS3 helicase domain; RNA unwinding).
With C/C=C1\NC(=O)[C@H]2CSSCC/C=C/[C@H](CC(=O)N[C@H](C(C)C)C(=O)N2)OC(=O)[C@H](C(C)C)NC1=O the IC50 was 0.0009 µM (histone deacetylase, Plasmodium falciparum; enzyme activity, inhibitor; nuclear extract).
The IC50 of CCOc1c([C@H](C)n2nc(C)c3c(N)ncnc32)cc(Cl)c(F)c1[C@@H]1CNC(=O)C1 is reported as 0.01 µM (PI3Kδ, human; inhibitor; human whole blood).
For C[C@@H]1COCCN1c1nc(-c2cnc(N)cn2)nc2c1C[C@@H]1COCCN21, the IC50 was 0.094 ± 0.0025 µM (Akt pSer473; phosphorylation, inhibitor; A2058).
Cc1cc(/C=C/C#N)cc(C)c1Nc1ccnc(Nc2ccc(C#N)cc2)n1 has an IC50 of 0.02 µM (Gag-Pol polyprotein, reverse transcriptase (gag-pol, Human immunodeficiency virus 1, UniProt P03366); reverse transcriptase activity; wild type).
COC(=O)[C@H](CC(C)C)NC(=O)[C@H](Cc1c[nH]cn1)NC(=O)[C@@H](C)NC(=O)[C@@H](NC(=O)[C@H](C)NC(=O)[C@H](Cc1c[nH]c2ccccc12)NC(=O)[C@H](CCC(N)=O)NC(=O)[C@H](N)Cc1c(F)c(F)c(F)c(F)c1F)C(C)C gave an IC50 of 0.0055 ± 0.0014 µM (Gastrin-releasing peptide receptor).
O=c1c2nc(Br)n([C@@H]3O[C@@H]4COP(=O)(O)O[C@H]4[C@H]3O)c2nc2[nH]c(-c3ccccc3)cn12 — result for “Km or Ki”: 98.6 µM (PDE2A; cyclic nucleotide hydrolysis, substrate or inhibitor, isothermal titration calorimetry).
For O=c1c2ccccc2nc2n1CCc1c-2[nH]c2ccccc12, the IC50 was 0.02 µM (Cytochrome P450 1A2 (CYP1A2, Homo sapiens, UniProt P05177); enzyme activity, inhibitor; recombinant bacterial membranes; added: 7-ethoxyresorufin).
The IC50 of NC(=S)NN=C(c1ccccc1)c1ccccc1 is reported as over 10 µM (Procathepsin L (CTSL, Homo sapiens, UniProt P07711); inhibitor).
For OC[C@@H](O)[C@@H]1[C@H](O)[C@H](O)CN1Cc1ccccc1, the IC50 was 690 µM (human Golgi α-mannosidase II; enzyme activity, inhibitor).
The IC50 of Nc1ncnc2c1ncn2[C@@H]1O[C@H](CSCC[C@H](N)C(=O)O)[C@@H](O)[C@H]1O is reported as 75.4 ± 6.3 µM (Nicotinamide N-methyltransferase (NNMT, Homo sapiens, UniProt P40261); inhibitor).
COC(c1ccc(Cl)cc1)(c1ccc2c(c1)c(-c1cccc(Cl)c1C)cc(=O)n2C)c1cncn1C (stereo not drawn) gave an IC50 of over 5 µM (Protein farnesyltransferase (Rattus norvegicus, UniProt Q02293+Q04631); mammalian enzyme).
With O=C(c1ccc(P(=O)(O)O)cc1O)c1[nH]c(Cl)c(Cl)c1-n1c(C(=O)c2ccc(P(=O)(O)O)cc2O)cc(Cl)c1Cl the IC50 was 10.9 ± 3.1 µM (Induced myeloid leukemia cell differentiation protein Mcl-1, with Bim (MCL1, Homo sapiens, UniProt Q07820); inhibitor, ELISA).
For O=C1NC(=O)[C@@H](c2cn3c4c(cccc24)CCC3)[C@@H]1c1c[nH]c2ccccc12, the IC50 was 0.02 to 0.05 µM (c-Met receptor tyrosine kinase; kinase activity, ATP-independent inhibitor).
Oc1ccc(/C=C/c2cc(O)cc(O)c2)cc1 gave an IC50 of 31.1 µM (alpha-glucosidase; enzyme activity, inhibitor).

Some of these lines once more:
The IC50 of O=C1CCOc2cc(OCc3ccc(Br)cc3)ccc21 is reported as 0.022 µM (Amine oxidase [flavin-containing] B (MAOB, Homo sapiens, UniProt P27338); enzyme activity, inhibitor).
The IC50 of NC(=NCc1ccccc1)NC(=O)c1nc(Cl)c(N)nc1N is reported as 0.83 µM (Degenerin mec-4 (mec-4, Caenorhabditis elegans, UniProt P24612, A713T); concentration not given).
O=C(O)c1cc2cc(Br)ccc2oc1=O gave an IC50 of 18.6 ± 1.4 µM (Glutamate NMDA receptor; Grin1/Grin2a (Grin1/Grin2a, Rattus norvegicus, UniProt P35439+Q00959)).
For C#Cc1nc2c(N)ncnc2n1[C@@H]1O[C@H](COP(=O)(O)OP(=O)(O)OC[C@H]2O[C@@H]([n+]3cc(N=[N+]=[N-])cc(C(=O)[O-])c3)[C@H](O)[C@@H]2O)[C@@H](O)[C@H]1OP(=O)(O)O, the IC50 was about 0.1 µM (NAADP receptor sea urchin; desensitization; sea urchin egg homogenate).
The IC50 of C[C@@H](O)CCCCn1c(=O)c2c(ncn2C)n(C)c1=O is reported as 0.6 µM (lysophosphatidic acid acyltransferase; inhibitor; P388; added: lipopolysaccharide).
O=C(O)C(O)(Cc1cccnc1)P(=O)(O)O (stereo not drawn) has an IC50 of about 600 µM (geranylgeranyltransferase II; enzyme activity, inhibitor).
